Assay results collected from several papers.
Protocols differ between the studies behind these lines. Values joined by “and” are separate records of one study, mostly repeats; a detail may differ.
Observed: metabolic stability
Matrix: liver microsomes

Structure (SMILES) | host | concentration | pH | microsomal CLint
CNC(=O)C1CCN(c2cc(C)c(F)cc2NC(=O)c2ccc(-c3c(C)ccc4[nH]ncc34)c(C)c2)CC1 | mouse | 2 µM | – | 50 µL/min/mg
O=C(Nc1ccc(OCCN2CCCC2)cc1)c1cc2ccc(Cl)cc2s1 | female mouse | – | – | 25 µL/min/mg
O=C(NCCNCCO)c1cn(Cc2ccc(F)cc2)c2cc(Cl)c(OCc3ccc(C(F)(F)F)cc3)cc2c1=O | male CD-1 mouse | 1 µM | – | < 11.6 µL/min/mg
CCc1nc(N)nc(N)c1C#CC(C)c1cc(-c2cc(C)nc(C)c2)ccc1OC (stereo not drawn) | male CD-1 mouse | 0.5 µg/mL | pH 7.4 | ~173 µL/min/mg
CNC(=O)C1CCN(c2ccccc2NC(=O)c2ccc(-c3c(C)ccc4[nH]ncc34)c(C)c2)CC1 | mouse | 2 µM | – | 245 µL/min/mg
CC1=N[C@H](C)Cc2c(-c3ccc(C)cc3)ccc(O)c21 | male CD-1 mouse | 1 µM | – | > 250 µL/min/mg
CCn1cc(C(=O)NCCNCCO)c(=O)c2cc(OCc3ccc(C(F)(F)F)cc3)c(C(F)(F)F)cc21 | male CD-1 mouse | 1 µM | – | < 11.6 µL/min/mg
NC[C@@H](C(=O)Nc1ccc(-c2cn[nH]c2)cc1)c1ccccc1 | mouse | – | – | 45.4 µL/min/mg
COc1cc(O)c(-c2cc(-c3cc(-c4c(O)cc(OC)c5c4C[C@@H](C)N[C@@H]5C)c4cc(C)cc(OC)c4c3O)c(O)c3c(OC)cc(C)cc23)c2c1[C@@H](C)N[C@H](C)C2 | male CD-1 mouse | 1 µM | – | < 11.6 µL/min/mg
CNC(=O)c1cc(C)ccc1NC(=O)c1ccc(-c2c(C)ccc3[nH]ncc23)c(C)c1 | mouse | 2 µM | – | 36 µL/min/mg
CCc1nc(N)nc(N)c1C#CC(C)c1cc(-c2cc(C)nc(C)c2)ccc1Cl (stereo not drawn) | male CD-1 mouse | 0.5 µg/mL | pH 7.4 | ~25 µL/min/mg
CN1CCN(C(=O)c2ccc(-c3cc4nccc(-c5ccc6cnccc6c5)c4o3)cc2)CC1 | mouse | – | – | 301 µL/min/mg
CNC(=O)C1CCN(c2cc(C)ccc2NC(=O)c2ccc(-c3cc(O)ccc3C)c(C)c2)CC1 | mouse | 2 µM | – | 142 µL/min/mg
O=C(C1CCN(c2nnnn2-c2ccccc2)CC1)N1CCCc2ccccc21 | mouse | 1 µM | – | > 578 µL/min/mg
CCc1nc(N)nc(N)c1C#CC(C)c1cccc(-c2cc(C)nc(C)c2)c1 (racemic) | mouse | – | – | ~70 µL/min/mg and 69 µL/min/mg
CCn1cc(C(=O)NCCNCCO)c(=O)c2cc(OCc3ccc(F)cc3)c(Cl)cc21 | male CD-1 mouse | 1 µM | – | < 11.6 µL/min/mg
CCc1nc(N)nc(N)c1C#CC(C)c1cc(-c2cc(C)nc(C)c2)ccc1OC(F)(F)F (racemic) | mouse | – | – | ~22 µL/min/mg
CCN(c1nc(N[C@H](CC(N)=O)C(=O)NC)nc(N2CCN(c3ccccc3C#N)CC2)n1)C1CCCCC1 | mouse | – | – | 18 µL/min/mg

Repeated from above:
Structure (SMILES) | host | concentration | pH | microsomal CLint
COc1cc(O)c(-c2cc(-c3cc(-c4c(O)cc(OC)c5c4C[C@@H](C)N[C@@H]5C)c4cc(C)cc(OC)c4c3O)c(O)c3c(OC)cc(C)cc23)c2c1[C@@H](C)N[C@H](C)C2 | male CD-1 mouse | 1 µM | – | < 11.6 µL/min/mg
CNC(=O)c1cc(C)ccc1NC(=O)c1ccc(-c2c(C)ccc3[nH]ncc23)c(C)c1 | mouse | 2 µM | – | 36 µL/min/mg
